Measurements of several laboratories.
Parts stem from different laboratories: compare values within a part only.

Series 1
Target: Interferon regulatory factor 5, full length, phosphomimetic (IRF5, Homo sapiens, UniProt Q13568-2, residues 1-514, S451D/S453D/S456D/S462D)
Technique: protein-binding microarray
Form: double-stranded DNA, one strand shown
Sample: in vitro
Concentration: 940 nM top
Notes: 60-bp whole probe
Added: salmon DNA 0.4 mg/ml
Relative to: random background probes
Direction: higher = stronger binding
All sequences stand within: GCCTAGCAC … GTCTTGATTCGCTTGACGCTGCTG
Strand | fitted relative affinity [z-score]
TTAGGTCTCGGGTTTCGGTTAGTGCTA | 6.6
CTAATTAGAATTTTCATTAAGTGCTAG | 0.0343
TTTATTTATTTATTTATTTAGTGCTAG | 0.531
TTAGGCCTCCTTCTCCTTTAGTGCTAG | 0.238
TCACCTATAGGTTTCTAACTGTGCTAG | 0.588

Series 2
Substance: PhoQ, residues 284 288 289 292 302 303 TAVSDG
Technique: Sort-seq
Refers to: YFP reporter
Sample: E. coli
Notes: PhoQ-PhoP variant library
Added: 10 µM Mg2+
Relative to: high Mg2+ state
Direction: higher = stronger signaling
target | fold induction
PhoP, residues 12 14 15 18 19 TQCLL (Escherichia coli, UniProt P23836) | 13.5
PhoP, residues 12 14 15 18 19 ICWRQ (Escherichia coli, UniProt P23836) | 6.96
PhoP, residues 12 14 15 18 19 VHTVL (Escherichia coli, UniProt P23836) | 10.8

Series 3
Target: RING finger protein unkempt homolog, zinc fingers 1-6, GST-SBP tag (UNK, Homo sapiens, UniProt Q9C0B0, residues 30-357)
Chain of UniProt Q9C0B0 (30-357, looked up): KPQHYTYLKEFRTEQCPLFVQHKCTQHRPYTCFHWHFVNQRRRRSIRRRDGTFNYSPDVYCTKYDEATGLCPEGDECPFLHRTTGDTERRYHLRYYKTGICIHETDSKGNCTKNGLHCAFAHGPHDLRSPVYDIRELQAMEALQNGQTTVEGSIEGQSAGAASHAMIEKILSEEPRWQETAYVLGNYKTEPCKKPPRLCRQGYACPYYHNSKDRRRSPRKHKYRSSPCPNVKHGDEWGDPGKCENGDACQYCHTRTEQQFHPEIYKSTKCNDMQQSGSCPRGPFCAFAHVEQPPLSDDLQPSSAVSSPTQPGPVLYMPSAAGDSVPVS
Technique: RNA Bind-n-Seq
Form: RNA
Sample: in vitro
Concentration: not given
Notes: RNA with constant flanks, human and mouse sites, ends assumed
Relative to: input RNA pool
Direction: higher = stronger binding
All sequences stand within: GGGAGUUCUACAGUCCGACGAUC … CAACAGAGGAUUGAGCAUCA
Strand | bound/input enrichment
UGGGGUGGGGACUGGCCCGAGGCCCUGGCUAUCAGUCAGCGGUGGCAGCAGCAGGACAAGGCGGCCAACAAGGAGCUCACCUUCCUGCUAUUCUCCUGCCCGCACCGCCUGCGGGAGCAC | 0.126 ratio
AGAUGGAAAGUGUUAAGAAAGAUUGGAGGUGGGGGCUUUGGAGAAAUUUACGAUGCCUUGGACAUGCUCACCAGGGAGAAUGUGGCGCUGAAGGUGGAGUCAGCUCAGCAGCCAAAGCAG | 0.359 ratio
UCUCUCUCUUCUGCAGGGCCACCACCAGUUCUCCCCCCACCUUCCCUGUCUUCUGCAGGGCCACCACCAGUUCUUCCCCCACCAUCUCUCUCUUCAACAGCACCUCCACCUGUCAUGCCC | 1.72 ratio
UAAAUAUACAAUACAUCAUACAUACUUUACAAGCAAGUUAAAUGGAGAUAAAGUUGAAAUCAUAGAAGAUGCAAAUGACCUUUCAAAAUCAACACAAUGUGUUCUGAAACUUUCGUGACU | 0.213 ratio
CCCACCACAUCCUCCGGGCUCACUCCACUGAGUACCACUGCGCCAAGCAUGUUCUCUGCUGAUUUUCUGGACCCACAGGACCUGCCGCUGCCAUGGGACUAAGGUCACAGGUCUCUUGUU | 0.22 ratio

Series 4
Target: Histone acetyltransferase KAT6A, winged helix 1, GST fusion (KAT6A, Homo sapiens, UniProt Q92794, residues 1-85)
Technique: protein binding microarray
Form: double-stranded DNA, one strand shown
Sample: in vitro
Concentration: not given
Notes: 8-mer, flanks averaged, mean of 2 arrays, mostly near background
Relative to: not given
Direction: higher = stronger binding
Target sequence (chain): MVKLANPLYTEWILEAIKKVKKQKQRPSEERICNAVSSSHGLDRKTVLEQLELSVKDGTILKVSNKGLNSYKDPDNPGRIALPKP
Strand | E-score
ACTTGCTA | -0.152
CTTACCCA | -0.146
AGATCCGA | 0.0372
ATTGTACA | -0.0361
TCAGGGGA | -0.123
AGGGATAA | -0.207
GCGTGAAC | 0.254
GAATGTCC | -0.0553
GACGTCCA | 0.04
TCTAAGAA | -0.127

Excerpt of the above (series 3):
Strand | bound/input enrichment
AGAUGGAAAGUGUUAAGAAAGAUUGGAGGUGGGGGCUUUGGAGAAAUUUACGAUGCCUUGGACAUGCUCACCAGGGAGAAUGUGGCGCUGAAGGUGGAGUCAGCUCAGCAGCCAAAGCAG | 0.359 ratio
UCUCUCUCUUCUGCAGGGCCACCACCAGUUCUCCCCCCACCUUCCCUGUCUUCUGCAGGGCCACCACCAGUUCUUCCCCCACCAUCUCUCUCUUCAACAGCACCUCCACCUGUCAUGCCC | 1.72 ratio
UAAAUAUACAAUACAUCAUACAUACUUUACAAGCAAGUUAAAUGGAGAUAAAGUUGAAAUCAUAGAAGAUGCAAAUGACCUUUCAAAAUCAACACAAUGUGUUCUGAAACUUUCGUGACU | 0.213 ratio
